Results collected from several papers.
Parts stem from different laboratories: compare values within a part only. Positions count from the first letter of the parent shown.

Block 1
Target: Interferon regulatory factor 7, full length, phosphomimetic (IRF7, Homo sapiens, UniProt Q92985, residues 1-503, S471D/S472D/S475D/S476D/S477D/S483D/S484D/S487D)
Sequence of UniProt Q92985 (whole entry, unmodified, looked up): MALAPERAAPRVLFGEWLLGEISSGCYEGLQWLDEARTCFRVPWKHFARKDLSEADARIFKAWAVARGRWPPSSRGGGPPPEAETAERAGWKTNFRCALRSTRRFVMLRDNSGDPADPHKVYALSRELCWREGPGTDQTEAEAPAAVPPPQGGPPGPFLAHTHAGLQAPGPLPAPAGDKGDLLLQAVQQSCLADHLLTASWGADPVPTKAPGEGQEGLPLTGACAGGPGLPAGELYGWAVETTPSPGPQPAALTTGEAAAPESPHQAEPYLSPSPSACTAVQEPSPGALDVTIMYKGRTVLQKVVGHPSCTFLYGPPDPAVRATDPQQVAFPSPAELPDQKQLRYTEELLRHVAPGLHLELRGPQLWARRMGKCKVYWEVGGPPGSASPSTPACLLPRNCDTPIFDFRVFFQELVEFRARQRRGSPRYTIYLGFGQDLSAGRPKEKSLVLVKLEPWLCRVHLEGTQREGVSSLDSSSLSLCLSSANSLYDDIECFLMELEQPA
Technique: protein-binding microarray
Form: double-stranded DNA, one strand shown
Sample: in vitro
Tested at: 2200 nM top
Setting: 60-bp whole probe
Added: salmon DNA 0.4 mg/ml
Relative to: random background probes
Reading: higher = stronger binding
Shared flanks, not repeated: GCCTAGCAC … GTCTTGATTCGCTTGACGCTGCTG
Strand	fitted relative affinity [z-score]
TTAGGACTGCTACTGGTTTAGTGCTAG	0.144
GACGGTATCCTTCTCCTGAGGTGCTAG	0.559
TGGATACTTTGCTGAACATCGTGCTAG	0.288
TTGGAACTGGGGACTGGATTAGTGCTA	-0.3
TCAACTTTCTGAATGCCACTGTGCTAG	4.31
GACGGTTTTGGTATCGGGACGTGCTAG	1.61
GACGGACCGGGACTGGGGACGTGCTAG	-0.804
TTAGGACTGGGTACCGGTTAGTGCTAG	-0.876
TAGGTTTCACTTTCCAAAACGTGCTAG	7.86
TTGGGTATCGACTTTCGGTTAGTGCTA	6.04
GACGGTTTCGACGCTGGGGACGTGCTA	1.7
TTCGGTATCGGTCTCGGTTAGTGCTAG	1.57
TTAGGACTGGGGCTCGGTTAGTGCTAG	-0.781
TCATGGTCCTCTCTCTAACTGTGCTAG	1.04
CTACGCCTGCAGGTGAGCCGGTGCTAG	-0.196
TCATCTCCCAGACTGGAACTGTGCTAG	1.02
TTTTGCTTTCCTTTATGTACGTGCTAG	8.09
GACGGACTGCTACTGCTAACGTGCTAG	-0.131
GACGGTATCGGGATTCGGGACGTGCTA	0.148

Block 2
Target: Fragile X messenger ribonucleoprotein 1, C-terminal low-complexity region (Fmr1, Mus musculus, UniProt P35922)
Technique: RNA Bind-n-Seq
Form: RNA
Sample: in vitro
Tested at: 200 nM
Setting: whole 134-nt RNA, ends assumed
Added: 150 mM LiCl
Relative to: input library
Reading: higher = stronger binding
All molecules: 7-deaza-guanosine replaces G
Shared flanks, not repeated: GGGAGUUCUACAGUCCGACGAUC … UGGAAUUCUCGGGUGUCAAGG
Strand	log2 enrichment
AAGUCCUGUGCUACACAUCGUAUGUACCGAAUCGGGGUUUGGGGAGGGGUUUGGGGAAAGUAUUAUGUUACGCCGUUCGGAUCUGCACUU	-0.74
CUCAAGUCCUGUGCUACACAUCGUAUGUACCGAAUCGGGAGGGAGGGGAGGGGAAAGUAUUAUGUUACGCCGUUCGGAUCUGCACUUCCA	-0.585
AGUCCUGUGCUACACAUCGUAUGUACCGAAUCAAACCCAAACCCAAAUUUUUUUAAAAAAGUAUUAUGUUACGCCGUUCGGAUCUGCACU	0.52
AGUCCUGUGCUACACAUCGUAUGUACCGAAUCGGCCCCCGGGCCCCCGGCCCCCGGGGAAAGUAUUAUGUUACGCCGUUCGGAUCUGCAC	-1.36
UCCUGUGCUACACAUCGUAUGUACCGAAUCGGGAAAAAAAGGGUUUUUUUGGGAAAGGGAAAGUAUUAUGUUACGCCGUUCGGAUCUGCA	-2.25
UGGCCCUGGUGGCAUGCGGGGAGGAAGAGGUGGCCUAAUGGAUCGUGGUGGUCCCGGUGGAAUGUUCAGAGGUGGCCGUGGUGGAGACAG	0.86
CCUGUGCUACACAUCGUAUGUACCGAAUCGUGUGUGUGUGUGUGUGUGUGUGUGUGUGUGUAAAGUAUUAUGUUACGCCGUUCGGAUCUG	-0.386
GCAGGAAGUAAAAACAAAUGGAAAUGCUUCUGAUAGUGGCAGGGGUGGGGGUUGCUAAGGAAAGGGUGGGAUGGGAGUGGGUAAAGAGUU	1.73

Block 3
Target: CCNA1, cyclin fold, Cln2 fusion (human)
Technique: yeast growth competition, sequencing
Sample: yeast
Setting: weak parent motif
Relative to: not given
Reading: higher = stronger binding
Parent: E2F1 docking peptide (human); PPVKRRLDLETDH; partner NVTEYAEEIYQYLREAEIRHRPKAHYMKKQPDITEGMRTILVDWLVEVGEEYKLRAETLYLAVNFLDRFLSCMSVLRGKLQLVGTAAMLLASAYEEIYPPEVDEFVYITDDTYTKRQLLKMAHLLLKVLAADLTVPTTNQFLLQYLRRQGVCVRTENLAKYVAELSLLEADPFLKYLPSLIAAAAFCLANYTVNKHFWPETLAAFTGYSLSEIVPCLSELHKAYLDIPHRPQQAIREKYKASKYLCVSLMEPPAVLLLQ
Substitution	normalised enrichment score
R5F	0.279
R5A L7A	0.0207
K4D	0.194
T11P	0.771
D12F	0.97
T11E	0.342
R6Q	0.496
P1T	0.232
D8Q	0.599
H13A	0.638
K4C	0.558
D12P	0.99
D8A	0.374
E10T	0.625
E10Q	0.653
D8L	0.431
K4S	0.368
K4A	0.39
R5G	0.376
P2Y	-0.185
T11I	0.181
T11D	0.241
T11A	0.572

Block 4
Target: RNA binding protein fox-1 homolog 2, RRM domain, GST-SBP tag (RBFOX2, Homo sapiens, UniProt O43251-10, residues 100-194)
Technique: RNA Bind-n-Seq
Form: RNA
Sample: in vitro
Tested at: 365 nM
Setting: natural RNA segment, single round, ends assumed
Relative to: no-protein control
Reading: higher = stronger binding
Shared flanks, not repeated: GGGAGUUCUACAGUCCGACGAUC … UGGAAUUCUCGGGUGCCAA
Construct (chain): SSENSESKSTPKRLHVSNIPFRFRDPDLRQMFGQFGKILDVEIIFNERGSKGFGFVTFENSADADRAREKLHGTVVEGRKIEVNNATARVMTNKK
Strand	RBNS enrichment (R)
CAGGCAGCAUGGUAUGUUUUUAGCCUUUGUUACAGUUUUAGCAACAUUGAUGUCUAAGAGGGGCCGUGGUAAUAGAUUGCAUCUGCCCUGUGCAUGCGCAUGUUUAACCA	8.49
CCGAGCGGGUAGGAGAGUUUCUUGCAGAACGUGUUUUUUCUUUACACACAUUAUGGCUGUAAAUACCUGGCUCCUGCCAGCAGCUGAGCUGGGUAGCCUCUCUGAGCUGG	0.355
AAGUCUGUGAGGGUGAAUGCUAAAGGCUGGGAAGGGAGUGGGCUAGCCAGCUCAUGGAACGUAGGCCGCAUACGCACAUCUUACCAGUAACCAGUGUGGUUGCCAGAGUG	0.26
UACCAGGAGAGUUGAGAGAUAGUAACUAUAGUUUUUCUUAGGUCUUUGUUUACUAAGGGUCUGCUUAGGAAGAAUUCAGGGAGGAACUGUGCUGUGGUGUGACCAAUGAA	0.803
AAGAAACGUUAGUUAGUGGGGCAAUACAUUCAUGCAAGGUUGGUGGCGCCUUAGAGAUGGGCGAGUGUCUGAGAAGACCUGCUCGGAGCACACUGCACUCUUUGAUCCUC	1.89
GGAGGGGCAGAGAGGUAGGUGGCACAGAAGAUGGGGCUUUAUGCUUGUAAAUAUUGAUAGCACUGGCUUCCUCCAAAGUCCCAAUACUCUAGCCCCGCUCUCUUCCCCUC	0.787
UAAGAUAGUGUAACAUGCUUACAUUUCUUAUCCGACAUUAACAAAUAAAACGCUGUUUUCCUAUUAAUCUACUGUUCUUUUUAACCCUUUAAACCAGCAGGUCUCAGCCU	0.415
CCAGAGUCCAGACUGACAUUACAGCGCAAGAGUUUGCAAGUGUGUCCAGCAUGCACCAACUGUGCAGAACUUGGCUCGGUAACUUUGCGUGGAAAAAUAAAGUACAUUUU	0.614

A few entries again (block 1):
Strand	fitted relative affinity [z-score]
TAGGTTTCACTTTCCAAAACGTGCTAG	7.86
TTGGGTATCGACTTTCGGTTAGTGCTA	6.04
GACGGTTTCGACGCTGGGGACGTGCTA	1.7
TTCGGTATCGGTCTCGGTTAGTGCTAG	1.57
TTAGGACTGGGGCTCGGTTAGTGCTAG	-0.781
TCATGGTCCTCTCTCTAACTGTGCTAG	1.04
CTACGCCTGCAGGTGAGCCGGTGCTAG	-0.196
TCATCTCCCAGACTGGAACTGTGCTAG	1.02
TTTTGCTTTCCTTTATGTACGTGCTAG	8.09
GACGGACTGCTACTGCTAACGTGCTAG	-0.131
